{"data": "Measurements pooled from the literature", "organism": "Enterococcus faecium", "note": "Each line is one published result; not all experiments were run side by side."}
{"SMILES": "CCCCCCCCCCCCC[C@@H](O)Cc1cc(O)cc(O)c1", "assay": "microbial growth, broth dilution", "setting": "drug-resistant strain", "MIC": "16 µg/mL"}
{"SMILES": "Cc1cc(/C=C2\\Sc3ccccc3N2CCCN2CCCC2)c2ccccc2[n+]1C", "assay": "microbial growth, broth dilution", "test system": "ATCC700221", "setting": "drug-resistant strain", "MIC": "32 µg/mL"}
{"SMILES": "CCc1ccc([C@@H]2C[C@H](C(F)(F)F)n3ncc(C(=O)NCc4ccc(OC)cc4)c3N2)cc1", "assay": "microbial growth, broth dilution", "test system": "X7501", "MIC": "64 µM"}
{"SMILES": "C=C(NC(=O)C(=C)NC(=O)c1csc(C2=NC3c4csc(n4)C4NC(=O)c5csc(n5)C(C(C)(O)C(C)O)NC(=O)C5CSC(=N5)C(=CC)NC(=O)C(C(C)O)NC(=O)c5csc(n5)C3(CC2)NC(=O)C(C)NC(=O)C(=C)NC(=O)C(C(C)C)NC2C=Cc3c(C(C)O)cc(nc3C2O)C(=O)OC4C)n1)C(N)=O (centres unmarked)", "assay": "broth microdilution", "test system": "ATCC 12952 VRE", "setting": "18 h, 37 °C", "MIC": "> 5 µg/mL"}
{"SMILES": "CN1C(=O)[C@@H]2NC(=O)[C@@H]3NC(=O)[C@@H](c4ccc(O)cc4)NC(=O)[C@H](NC(=O)C(NCc4ccc(Br)cc4)c4ccc(O)cc4)Cc4c[nH]c5cc(ccc45)-c4cc3cc(c4O)Oc3ccc(cc3)C[C@H]1C(=O)N[C@@H](C(=O)O)c1ccc(O)c(c1)Oc1ccc2cc1 (some centres unmarked)", "test system": "brain heart infusion medium", "MIC": "8 µg/mL"}
{"SMILES": "c1ccc(CCNC2CCCc3c2[nH]c2ccc(C4CCCCC4)cc32)cc1 (centres unmarked)", "assay": "broth microdilution", "test system": "BM4147 vancomycin-resistant, cation-adjusted Mueller-Hinton broth", "MIC": "2 µg/mL"}
{"SMILES": "CN1C(=O)[C@@H]2NC(=O)[C@@H]3NC(=O)[C@@H](c4ccc(O)cc4)NC(=O)[C@H](NC(=O)C(NCc4cc(Cl)cc(Cl)c4Cl)c4ccc(O)cc4)Cc4c[nH]c5cc(ccc45)-c4cc3cc(c4O)Oc3ccc(cc3)C[C@H]1C(=O)N[C@@H](C(=O)O)c1ccc(O)c(c1)Oc1ccc2cc1 (some centres unmarked)", "test system": "brain heart infusion medium", "MIC": "16 µg/mL"}
{"SMILES": "O=C(NC12CC3CC(CC(C3)C1)C2)c1cc2cc(Cl)ccc2[nH]1", "assay": "microbial growth, broth dilution", "test system": "X7501", "MIC": "> 64 µM"}
{"SMILES": "CN(C)CCCNC(=O)[C@@H]1NC(=O)[C@@H]2Cc3ccc(cc3)Oc3cc4cc(c3O)-c3ccc5c(c[nH]c5c3)C[C@@H](NC(=O)C(NC(=O)CCCCCN)c3ccc(O)cc3)C(=O)N[C@H](c3ccc(O)cc3)C(=O)N[C@H]4C(=O)N[C@@H](C(=O)N2C)c2ccc(cc2)Oc2cc1ccc2O (some centres unmarked)", "test system": "WCC 0502, VRE-A", "MIC": "1 to 2 µg/mL"}
{"SMILES": "CCCCCCCCCCCCCC(=O)N[C@@H]1CCNC(=O)[C@H](CC(=O)O)NC(=O)[C@H](C(C)C)NC(=O)[C@@H](Cc2ccc(O)cc2)NC(=O)[C@H](CCN)NC(=O)[C@H](CC(C)C)NC(=O)[C@@H](Cc2ccccc2)NC(=O)[C@H](CCN)NC(=O)[C@H](CC(C)C)NC(=O)[C@H](CCN)NC(=O)[C@H]([C@@H](C)O)NC1=O", "assay": "broth microdilution", "test system": "BNCC 186301", "MIC": "4 µg/mL"}
{"SMILES": "Cc1cccc(-c2nc(Nc3ccncn3)c3sccc3n2)n1", "assay": "microbial growth, broth dilution", "test system": "X7501", "MIC": "16 µM"}
{"SMILES": "CC1=C[C@@]2(C)C(=C(C)[C@H]3[C@@H]4C[C@H](C)C[C@H](C)[C@H]4[C@H]4Oc5ccc(cc5)C[C@]5(O)NC(=O)[C@]6(O[C@H]65)C(=O)[C@@H]2[C@@H]43)[C@H]1C", "assay": "microbial growth, broth dilution", "test system": "ATCC700221", "setting": "drug-resistant strain", "MIC": "3.1 µM"}
{"SMILES": "CN1C(=O)[C@@H]2NC(=O)[C@@H]3NC(=O)[C@@H](c4ccc(O)cc4)NC(=O)[C@H](NC(=O)C(N)c4ccc(O)cc4)Cc4c[nH]c5cc(ccc45)-c4cc3cc(c4O)Oc3ccc(cc3)C[C@H]1C(=O)N[C@@H](C(=O)O)c1ccc(O)c(c1)Oc1ccc2cc1 (some centres unmarked)", "test system": "WCC 0524, VRE-A", "MIC": "4 to 8 µg/mL"}
{"SMILES": "CNC(CC(C)C)C(=O)NC1C(=O)NC(CC(N)=O)C(=O)NC2C(=O)NC3C(=O)NC(C(=O)NC(C(=O)O)c4cc(O)cc(O)c4-c4cc3ccc4O)C(O)c3ccc(c(Cl)c3)Oc3cc2cc(c3OC2OC(CO)C(O)C(O)C2OC2CC(C)(NCc3ccc(-c4ccc(Cl)cc4)cc3)C(O)C(C)O2)Oc2ccc(cc2Cl)C1O (centres unmarked)", "test system": "ATCC BAA-2317 VanA", "setting": "−LTA", "MIC": "2.5 µg/mL"}
{"SMILES": "CN1C(=O)[C@@H]2NC(=O)[C@@H]3NC(=O)[C@@H](c4ccc(O)cc4)NC(=O)[C@H](NC(=O)C(NCc4ccsc4)c4ccc(O)cc4)Cc4c[nH]c5cc(ccc45)-c4cc3cc(c4O)Oc3ccc(cc3)C[C@H]1C(=O)N[C@@H](C(=O)O)c1ccc(O)c(c1)Oc1ccc2cc1 (some centres unmarked)", "test system": "brain heart infusion medium", "MIC": "8 µg/mL"}
{"SMILES": "COc1ccc2nc(C)cc(OCC(=O)Nc3cc(C)cc(C)c3)c2c1", "assay": "microbial growth, broth dilution", "test system": "X7501", "MIC": "> 64 µM"}
{"SMILES": "CC[P+](CC)(CC)[Au-][S][C@@H]1O[C@H](COC(C)=O)[C@@H](OC(C)=O)[C@H](OC(C)=O)[C@H]1NC(C)=O", "test system": "ATCC 700221", "MIC": "0.09 µM"}
{"note": "Repeated from above:"}
{"SMILES": "CCc1ccc([C@@H]2C[C@H](C(F)(F)F)n3ncc(C(=O)NCc4ccc(OC)cc4)c3N2)cc1", "assay": "microbial growth, broth dilution", "test system": "X7501", "MIC": "64 µM"}
{"SMILES": "CN1C(=O)[C@@H]2NC(=O)[C@@H]3NC(=O)[C@@H](c4ccc(O)cc4)NC(=O)[C@H](NC(=O)C(NCc4ccc(Br)cc4)c4ccc(O)cc4)Cc4c[nH]c5cc(ccc45)-c4cc3cc(c4O)Oc3ccc(cc3)C[C@H]1C(=O)N[C@@H](C(=O)O)c1ccc(O)c(c1)Oc1ccc2cc1 (some centres unmarked)", "test system": "brain heart infusion medium", "MIC": "8 µg/mL"}
